Assay results from different studies.
Values joined by “and” are separate records of one study, mostly repeats; a detail may differ. ± gives the spread as reported. Converted amounts (≈) assume the structure as drawn.
Chain of UniProt P41586 (whole entry, looked up): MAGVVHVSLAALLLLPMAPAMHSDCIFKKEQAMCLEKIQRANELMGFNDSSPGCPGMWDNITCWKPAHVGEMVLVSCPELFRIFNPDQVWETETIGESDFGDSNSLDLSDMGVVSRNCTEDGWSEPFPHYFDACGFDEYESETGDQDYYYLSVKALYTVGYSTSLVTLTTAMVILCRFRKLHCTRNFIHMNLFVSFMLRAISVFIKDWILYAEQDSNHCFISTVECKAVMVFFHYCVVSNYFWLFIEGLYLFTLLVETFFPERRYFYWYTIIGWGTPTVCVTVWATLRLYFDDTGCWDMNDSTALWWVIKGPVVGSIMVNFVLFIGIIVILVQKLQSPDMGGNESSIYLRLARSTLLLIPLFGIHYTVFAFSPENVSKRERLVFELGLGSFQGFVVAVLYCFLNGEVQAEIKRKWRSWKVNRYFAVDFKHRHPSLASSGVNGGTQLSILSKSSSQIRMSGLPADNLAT
Chain of UniProt O00443 (whole entry, looked up): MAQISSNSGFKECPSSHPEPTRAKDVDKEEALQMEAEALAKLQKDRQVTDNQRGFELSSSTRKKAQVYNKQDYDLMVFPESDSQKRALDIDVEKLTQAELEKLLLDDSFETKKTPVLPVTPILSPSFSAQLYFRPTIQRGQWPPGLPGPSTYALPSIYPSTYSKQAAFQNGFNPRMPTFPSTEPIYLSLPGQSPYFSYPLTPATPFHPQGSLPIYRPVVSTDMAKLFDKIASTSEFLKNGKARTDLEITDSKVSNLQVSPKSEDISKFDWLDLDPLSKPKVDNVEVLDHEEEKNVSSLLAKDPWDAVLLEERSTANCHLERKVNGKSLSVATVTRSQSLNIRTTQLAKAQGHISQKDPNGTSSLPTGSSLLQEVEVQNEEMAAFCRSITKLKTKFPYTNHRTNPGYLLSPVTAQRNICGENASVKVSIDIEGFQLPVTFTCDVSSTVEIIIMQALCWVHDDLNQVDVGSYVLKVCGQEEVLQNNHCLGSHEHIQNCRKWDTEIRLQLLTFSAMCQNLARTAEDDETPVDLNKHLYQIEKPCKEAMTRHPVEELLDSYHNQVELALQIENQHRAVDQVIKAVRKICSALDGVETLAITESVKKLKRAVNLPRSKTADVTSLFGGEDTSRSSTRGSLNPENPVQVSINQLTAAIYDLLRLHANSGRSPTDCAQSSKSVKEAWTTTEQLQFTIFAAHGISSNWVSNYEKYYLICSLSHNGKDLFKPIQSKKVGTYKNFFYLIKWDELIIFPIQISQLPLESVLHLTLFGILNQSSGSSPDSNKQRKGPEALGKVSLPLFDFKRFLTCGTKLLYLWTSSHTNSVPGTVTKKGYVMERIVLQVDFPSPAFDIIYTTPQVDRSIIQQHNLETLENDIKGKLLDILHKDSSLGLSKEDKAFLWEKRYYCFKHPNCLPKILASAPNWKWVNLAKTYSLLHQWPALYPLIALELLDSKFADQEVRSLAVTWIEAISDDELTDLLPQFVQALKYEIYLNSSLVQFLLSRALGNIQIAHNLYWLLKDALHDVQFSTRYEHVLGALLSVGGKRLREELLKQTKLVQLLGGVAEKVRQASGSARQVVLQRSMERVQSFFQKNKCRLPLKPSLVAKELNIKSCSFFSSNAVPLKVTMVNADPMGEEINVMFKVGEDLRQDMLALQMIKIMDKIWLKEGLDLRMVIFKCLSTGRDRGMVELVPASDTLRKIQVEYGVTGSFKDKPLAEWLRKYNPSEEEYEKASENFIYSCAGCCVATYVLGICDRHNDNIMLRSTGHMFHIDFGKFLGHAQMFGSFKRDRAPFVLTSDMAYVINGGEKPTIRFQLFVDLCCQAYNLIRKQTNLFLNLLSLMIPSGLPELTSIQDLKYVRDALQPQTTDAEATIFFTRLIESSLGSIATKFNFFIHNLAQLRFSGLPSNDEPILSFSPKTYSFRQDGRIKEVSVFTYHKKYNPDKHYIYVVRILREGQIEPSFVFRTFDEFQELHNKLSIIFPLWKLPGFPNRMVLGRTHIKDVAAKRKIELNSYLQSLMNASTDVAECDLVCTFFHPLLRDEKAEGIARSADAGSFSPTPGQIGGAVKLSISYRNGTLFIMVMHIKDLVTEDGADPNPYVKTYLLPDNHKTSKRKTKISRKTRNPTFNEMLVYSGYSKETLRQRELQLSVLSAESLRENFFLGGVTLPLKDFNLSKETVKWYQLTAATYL
Chain of UniProt Q01718 (whole entry, looked up): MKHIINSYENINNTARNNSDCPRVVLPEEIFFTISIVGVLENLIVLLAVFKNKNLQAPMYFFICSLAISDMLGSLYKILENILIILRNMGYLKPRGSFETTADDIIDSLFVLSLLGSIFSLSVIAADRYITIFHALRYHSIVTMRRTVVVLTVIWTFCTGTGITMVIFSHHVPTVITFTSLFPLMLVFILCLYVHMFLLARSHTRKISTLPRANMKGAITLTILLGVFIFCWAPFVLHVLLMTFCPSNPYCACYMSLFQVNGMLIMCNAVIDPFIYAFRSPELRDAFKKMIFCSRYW
Chain of UniProt O14733 (whole entry, looked up): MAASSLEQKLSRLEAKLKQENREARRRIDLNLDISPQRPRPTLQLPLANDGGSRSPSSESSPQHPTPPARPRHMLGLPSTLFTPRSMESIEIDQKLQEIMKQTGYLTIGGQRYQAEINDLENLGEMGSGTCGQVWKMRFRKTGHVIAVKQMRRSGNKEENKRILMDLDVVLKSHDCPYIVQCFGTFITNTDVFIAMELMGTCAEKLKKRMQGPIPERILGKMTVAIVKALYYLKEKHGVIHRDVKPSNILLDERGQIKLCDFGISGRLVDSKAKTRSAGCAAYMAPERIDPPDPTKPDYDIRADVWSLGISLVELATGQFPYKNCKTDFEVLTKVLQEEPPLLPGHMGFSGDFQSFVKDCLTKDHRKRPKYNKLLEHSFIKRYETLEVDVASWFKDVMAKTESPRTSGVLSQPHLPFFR

SMILES | tested on | assay | system | setting | scale | endpoint | value
O=C1NC2(CC2)COc2ncc(F)cc2[C@H]2COCCN2c2ccn3ncc1c3n2 | – | – | Sprague-Dawley rat, female, spleen | oral, 5 mg/kg/day, 4 weeks, end of treatment | – | organ-to-body weight ratio | 0.305 ± 0.041%
CN[C@@H]1[C@H](O)[C@H](NC)[C@H]2O[C@]3(O)[C@H](O[C@@H]2[C@H]1O)O[C@H](C)C[C@H]3NC(=O)Cc1ccc(F)cn1 | Streptococcus pyogenes | microbial growth, broth dilution | ATCC700294 | – | – | MIC | 12.5 µg/mL
CON(C(=O)c1cn(C)nc1C(F)F)C(C)Cc1c(Cl)cc(Cl)cc1Cl (stereo not drawn) | Fusarium pseudograminearum | spore germination | – | 12 h, 28 °C | – | EC50 | 0.097 µg/mL (≈ 0.227 µM)
C=CCN1C(=O)C(CC=C)(C(=O)OCC)Oc2cc(F)ccc21 (stereo not drawn) | Fusarium graminearum | microbial growth | – | 200 µg/mL | – | inhibition | > 50%
CS(C)(=O)=Nc1ccc(-c2ccc(-c3nc4cc(O[C@@H]5CO[C@H]6[C@@H]5OC[C@H]6O)[nH]c4cc3F)cc2)cc1 | PIK3C2A (Homo sapiens, UniProt O00443) | enzyme activity, inhibitor | – | 10 µM | – | inhibition | 5%
CN[C@@H]1[C@H](O)[C@H](NC)[C@H]2O[C@]3(O)[C@H](O[C@@H]2[C@H]1O)O[C@H](C)C[C@H]3NC(=O)Cc1cscn1 | Proteus vulgaris | microbial growth, broth dilution | ATCC33420 | – | – | MIC | > 200 µg/mL
CN(C)[C@H]1C[C@@]23CC[C@@]4(O2)C(=CC[C@]2(C)[C@@H](c5ccc6ccncc6c5)CC[C@H]24)C=C3[C@@H](O)[C@@H]1O | MAP2K7 (Homo sapiens, UniProt O14733) | ATP probe labelling, inhibitor, KiNativ profiling | – | 0.1 µM | – | inhibition | 9.7%
CC(C)CC(C(=O)N1CC2(CC1C#N)C(=O)Nc1ccccc12)N(C)C(=O)c1cc2c(F)cc(F)c(F)c2[nH]1 (stereo not drawn) | Human coronavirus 229E | cytopathic effect | MRC5 | 0.4975 µM | – | inhibition | 101%
CO[C@H]1/C=C/O[C@@]2(C)Oc3c(C)c(O)c4c(c3C2=O)C2=NC3(CCN(CC(C)C)CC3)NC2=C(NC(=O)/C(C)=C\C=C\[C@H](C)[C@H](O)[C@@H](C)[C@@H](O)[C@@H](C)[C@H](OC(=O)c2ccccc2)[C@@H]1C)C4=O | Mycobacteroides abscessus | – | RFB-R1 rifamycin-resistant RNAP mutant | – | 90% growth inhibition | MIC | > 100 µM
CCCCCCCCCCCCCCC(=O)N[C@@H](CCCCNC(=O)CN1CCN(CC(=O)O)CCN(CC(=O)O)CCN(CC(=O)O)CC1)C(=O)NCCCC[C@@H]1NC(=O)[C@@H](Cc2ccccc2)NC(=O)[C@H](CC(=O)O)NC(=O)CNC(=O)[C@H](CCCNC(=N)N)NC1=O [actinium-225 labelled] | – | – | BxPC-3 xenograft mice, blood | 40 kBq, end of study | – | GOT and GPT levels | increased
Cc1ccc(CNC(=O)C(=O)c2c(C)nc3ccc(C)cn23)cc1 | Mycobacterium kansasii | microbial growth | – | 6 days | – | MIC | 53.7 µM
O=C(NNc1ccccc1)c1nnc(C23CC4CC(CC(C4)C2)C3)o1 | Pyricularia grisea | microbial growth | – | – | – | EC50 | > 50 µg/mL
N[C@H](C(=O)N1CCCC1)C1CCN(c2nccc3c(-c4ncc(Cl)cc4Cl)cccc23)CC1 | MC2R (Homo sapiens, UniProt Q01718) | functional response, antagonist | – | 10 µM | – | inhibition | 10%
CC(C)[C@H]1NC(=O)C[C@H]2/C=C/CCSSC[C@@H](NC1=O)C(=O)N[C@H](Cc1cccc3ccccc13)C(=O)NCC(=O)O2 | PRKCG (Homo sapiens, UniProt P05129) | enzyme activity, inhibitor | – | 10 µM | – | inhibition | -2.5%
C[C@H](NC(=O)[C@H](CCCNC(=N)N)NC(=O)[C@@H](N)Cc1ccccc1)C(=O)N[C@H]1CSCc2cccc(n2)CSC[C@@H](C(=O)N[C@H](C(=O)NCC(=O)N[C@@H](CO)C(=O)N[C@@H](Cc2ccc(O)cc2)C(=O)N[C@@H](Cc2c[nH]cn2)C(=O)N[C@@H](CCCCNC(=O)CN2CCN(CC(=O)O)CCN(CC(=O)O)CCN(CC(=O)O)CC2)C(=O)O)[C@@H](C)O)NC(=O)[C@H](CC(=O)O)NC(=O)[C@H](Cc2ccccc2)NC(=O)[C@@H]2CCCN2C1=O [gallium-68 labelled] | – | radio-HPLC | 10% fetal bovine serum | 2 h, 37 °C | – | radiochemical purity | > 99%
O=C(NNc1ccc(Cl)cc1)c1nnc(CC23CC4CC(CC(C4)C2)C3)o1 | Pyricularia grisea | microbial growth | – | 50 µg/mL | – | inhibition | 100%
CSCC[C@H](NC(=O)[C@H](CCC(N)=O)NC(=O)[C@H](CCCCN)NC(=O)[C@H](CCCNC(=N)N)NC(=O)[C@H](Cc1ccc(O)cc1)NC(=O)[C@H](CCCNC(=N)N)NC(=O)[C@H](CO)NC(=O)[C@H](Cc1ccc(O)cc1)NC(=O)[C@H](CO)NC(=O)[C@H](CC(=O)O)NC(=O)[C@@H](NC(=O)[C@@H](N)Cc1ccccc1)[C@@H](C)O)C(=O)N[C@@H](C)C(=O)N[C@H](C(=O)N[C@@H](CCCCN)C(=O)N[C@@H](CCCCN)C(=O)N[C@@H](Cc1ccc(O)cc1)C(=O)N[C@@H](CC(C)C)C(=O)N[C@@H](C)C(=O)N[C@@H](C)C(=O)N[C@H](C(=O)N[C@@H](CC(C)C)C(=O)NCC(=O)N[C@@H](CCCCN)C(=O)N[C@@H](CCCNC(=N)N)C(=O)N[C@@H](Cc1ccc(O)cc1)C(=O)N[C@@H](CCCCN)C(=O)N[C@@H](CCC(N)=O)C(=O)N[C@@H](CCCNC(=N)N)C(=O)N[C@H](C(=O)N[C@@H](CCCCN)C(=O)N[C@@H](CC(N)=O)C(=O)N[C@@H](CCCCn1cc(C[C@H](NC(=O)CNC(=O)[C@H](CO)NC(=O)[C@H](CCCNC(=N)N)NC(=O)[C@H](CO)NC(=O)[C@H](CC(C)C)NC(=O)[C@H](CC(C)C)NC(=O)CNC(=O)[C@H](C)NC(=O)[C@H](CC(C)C)NC(=O)[C@H](CCCNC(=N)N)NC(=O)[C@H](Cc2c[nH]cn2)NC(=O)[C@@H](NC(=O)[C@@H](N)C(C)C)[C@@H](C)O)C(=O)N[C@H](C(=O)N[C@H](C(=O)N[C@@H](CCCCN)C(=O)N[C@@H](CC(N)=O)C(=O)N[C@@H](CC(N)=O)C(=O)N[C@@H](Cc2ccccc2)C(=O)N[C@H](C(=O)N2CCC[C@H]2C(=O)N[C@H](C(=O)N[C@@H](CC(N)=O)C(=O)N[C@H](C(=O)NCC(=O)N[C@@H](CO)C(=O)N[C@@H](CCCCN)C(=O)N[C@@H](C)C(=O)N[C@@H](Cc2ccccc2)C(N)=O)C(C)C)[C@@H](C)O)C(C)C)C(C)C)C(C)C)nn1)C(N)=O)C(C)C)C(C)C)C(C)C | ADCYAP1R1 (Homo sapiens, UniProt P41586) | cAMP accumulation, antagonist | – | added: VIP | – | Kb | 0.0339 µM

SMILES | tested on | assay | system | setting | scale | endpoint | value
Cc1ccc(-c2nc3ccc(C)cn3c2CC(=O)NCc2ccc(N(C)C)cc2)cc1 | Mycobacteroides abscessus | – | ATCC 19977 | 72 h | – | MIC | > 50 µM
CCCC[C@H](NC(=O)CN1CCC(NC(=O)CN2CCN(CC(N)=O)CCN(CC(N)=O)CCN(CC(N)=O)CC2)CC1)C(=O)N[C@H]1CC(=O)NCCCC[C@@H](C(N)=O)NC(=O)[C@H](Cc2c[nH]c3ccccc23)NC(=O)[C@H](CCCNC(=N)N)NC(=O)[C@@H](Cc2ccccc2)NC(=O)[C@H](Cc2c[nH]cn2)NC1=O [lead-203 labelled] | – | SPECT/CT SUVmean | C57BL/6J mice B16-F10 tumour-bearing, liver | dose not given, 2 h | baseline: thiourea analogue over amide | liver uptake reduction | 3.7 fold
Cc1ccc(CNC(=O)Cc2c(C)nc3ccc(C)cn23)cc1 | Mycobacterium kansasii | microbial growth | – | 6 days | – | MIC | > 50 µM
CN[C@@H]1[C@H](O)[C@H](NC)[C@H]2O[C@]3(O)[C@H](O[C@@H]2[C@H]1O)O[C@H](C)C[C@H]3NC(=O)Cc1ccccn1 | Mycobacterium avium | microbial growth | ATCC25291 | – | – | MIC | 50 µg/mL
Cc1cc(Oc2nc(N3CC[C@@H](c4ccncc4)C3)ncc2F)[nH]n1 | Mycobacterium tuberculosis | OD | H37Rv PurF CRISPRi knockdown | 1.5e-05 µM, added: anhydrotetracycline low | – | normalised growth | 98% and 101%
CN[C@@H]1[C@H](O)[C@H](NC)[C@H]2O[C@]3(O)[C@H](O[C@@H]2[C@H]1O)O[C@H](C)C[C@H]3NC(=O)Cc1ccc(Cl)cn1 | Proteus vulgaris | microbial growth, broth dilution | ATCC33420 | – | – | MIC | > 200 µg/mL
CC(C)(C)C(=O)OCOP(=O)(OCOC(=O)C(C)(C)C)C1CCCN(O)C1=O (stereo not drawn) | A549 | – | – | – | – | GI50 | 0.637 µM
Cc1ccc2nc(C)c(CC(=O)NCc3ccc(N(C)C)cc3)n2c1 | Mycobacteroides abscessus | – | ATCC 19977 | 72 h | – | MIC | > 50 µM
CN[C@@H]1[C@H](O)[C@H](NC)[C@H]2O[C@]3(O)[C@H](O[C@@H]2[C@H]1O)O[C@H](C)C[C@H]3NC(=O)CNC(C)(C)C | Streptococcus pyogenes | microbial growth, broth dilution | ATCC700294 | – | – | MIC | 100 µg/mL
Cc1ccc2nc(C)c(C(=O)NCc3ccccc3)n2c1 | Mycobacteroides abscessus | – | ATCC 19977 | 72 h | – | MIC | > 128 µM
Cc1nc2cc(C(F)(F)F)ccn2c1C(=O)NCc1ccc2oc(-c3ccc(Cl)cc3)nc2c1 | Mycobacteroides abscessus | RFP fluorescence | ATCC 19977, RFP reporter | – | – | MIC90 | > 100 µM
Cc1ccc2nc(C)c(C(=O)C(=O)N(C)C)n2c1 | Mycobacteroides abscessus | – | ATCC 19977 | 72 h | – | MIC | > 128 µM
CN[C@@H]1[C@H](O)[C@H](NC)[C@H]2O[C@]3(O)[C@H](O[C@@H]2[C@H]1O)O[C@H](C)C[C@H]3NC(=O)Cc1cc(Cl)ccn1 | Mycobacterium avium | microbial growth | ATCC25291 | – | – | MIC | 12.5 to 25 µg/mL
CC[C@@H]1C(=O)N(C)c2cnc(Nc3ccc(C(=O)NCCCC[C@H](NC(=O)[C@@H](NC(=O)[C@H](CO)NC(=O)[C@H](Cc4cncn4CCCCCCCCc4ccccc4)NC(=O)[C@H](CC(C)C)NC(=O)[C@@H]4CCCN4C(C)=O)[C@@H](C)CP(=O)(O)O)C(N)=O)cc3OC)nc2N1C1CCCC1 | Caco-2 | – | – | 10 µM, 2 h | – | Papp B-A | 0.0129 ×10⁻⁶ cm/s
CN[C@@H]1[C@H](O)[C@H](NC)[C@H]2O[C@]3(O)[C@H](O[C@@H]2[C@H]1O)O[C@H](C)C[C@H]3NC(=O)Cc1ccccc1 | Proteus vulgaris | microbial growth, broth dilution | ATCC33420 | – | – | MIC | > 200 µg/mL
Cc1ccc2nc(C)c(C(=O)C(=O)NCc3ccccc3)n2c1 | Mycobacterium avium | microbial growth | – | 6 days | – | MIC | 1.8 µM

For quick reference, copied from above:
SMILES | tested on | assay | system | setting | scale | endpoint | value
Cc1ccc2nc(C)c(C(=O)NCc3ccccc3)n2c1 | Mycobacteroides abscessus | – | ATCC 19977 | 72 h | – | MIC | > 128 µM
Cc1nc2cc(C(F)(F)F)ccn2c1C(=O)NCc1ccc2oc(-c3ccc(Cl)cc3)nc2c1 | Mycobacteroides abscessus | RFP fluorescence | ATCC 19977, RFP reporter | – | – | MIC90 | > 100 µM
Cc1ccc2nc(C)c(C(=O)C(=O)N(C)C)n2c1 | Mycobacteroides abscessus | – | ATCC 19977 | 72 h | – | MIC | > 128 µM
